Measurements of several laboratories.
Numbered parts are unrelated; each lists some results of a single study. Several values in a cell are separate wells, animals, samples, runs or records.
Sequence of UniProt P29597 (whole entry, looked up): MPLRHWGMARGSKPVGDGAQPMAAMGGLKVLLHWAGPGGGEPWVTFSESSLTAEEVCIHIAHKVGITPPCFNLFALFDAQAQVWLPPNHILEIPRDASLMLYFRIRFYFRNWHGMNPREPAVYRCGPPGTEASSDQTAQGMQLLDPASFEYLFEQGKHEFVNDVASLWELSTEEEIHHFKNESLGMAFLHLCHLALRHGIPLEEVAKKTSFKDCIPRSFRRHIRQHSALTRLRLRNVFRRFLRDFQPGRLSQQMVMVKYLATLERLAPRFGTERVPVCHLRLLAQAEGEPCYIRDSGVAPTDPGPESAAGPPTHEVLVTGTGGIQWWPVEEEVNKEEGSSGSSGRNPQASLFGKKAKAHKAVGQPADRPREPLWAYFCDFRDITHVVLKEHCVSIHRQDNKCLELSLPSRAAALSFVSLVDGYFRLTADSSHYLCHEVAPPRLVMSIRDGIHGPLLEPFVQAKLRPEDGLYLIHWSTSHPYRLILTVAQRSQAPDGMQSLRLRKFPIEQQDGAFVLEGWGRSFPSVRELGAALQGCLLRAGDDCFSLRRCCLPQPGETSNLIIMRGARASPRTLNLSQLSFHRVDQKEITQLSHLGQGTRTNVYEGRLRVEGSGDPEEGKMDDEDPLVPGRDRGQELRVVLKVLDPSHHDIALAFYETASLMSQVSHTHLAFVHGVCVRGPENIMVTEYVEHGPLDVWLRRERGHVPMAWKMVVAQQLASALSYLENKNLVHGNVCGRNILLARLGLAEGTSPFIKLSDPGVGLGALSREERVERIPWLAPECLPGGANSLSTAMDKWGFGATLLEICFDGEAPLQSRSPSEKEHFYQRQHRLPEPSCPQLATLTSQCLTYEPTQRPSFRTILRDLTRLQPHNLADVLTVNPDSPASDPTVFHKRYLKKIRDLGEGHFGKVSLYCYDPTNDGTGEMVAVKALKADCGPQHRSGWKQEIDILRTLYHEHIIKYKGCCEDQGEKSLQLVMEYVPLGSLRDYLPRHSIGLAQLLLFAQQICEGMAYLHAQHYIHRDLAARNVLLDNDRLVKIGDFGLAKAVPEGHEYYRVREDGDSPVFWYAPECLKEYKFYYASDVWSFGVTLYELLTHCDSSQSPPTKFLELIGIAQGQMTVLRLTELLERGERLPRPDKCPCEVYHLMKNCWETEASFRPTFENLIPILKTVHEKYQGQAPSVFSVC
Sequence of UniProt Q12851 (whole entry, looked up): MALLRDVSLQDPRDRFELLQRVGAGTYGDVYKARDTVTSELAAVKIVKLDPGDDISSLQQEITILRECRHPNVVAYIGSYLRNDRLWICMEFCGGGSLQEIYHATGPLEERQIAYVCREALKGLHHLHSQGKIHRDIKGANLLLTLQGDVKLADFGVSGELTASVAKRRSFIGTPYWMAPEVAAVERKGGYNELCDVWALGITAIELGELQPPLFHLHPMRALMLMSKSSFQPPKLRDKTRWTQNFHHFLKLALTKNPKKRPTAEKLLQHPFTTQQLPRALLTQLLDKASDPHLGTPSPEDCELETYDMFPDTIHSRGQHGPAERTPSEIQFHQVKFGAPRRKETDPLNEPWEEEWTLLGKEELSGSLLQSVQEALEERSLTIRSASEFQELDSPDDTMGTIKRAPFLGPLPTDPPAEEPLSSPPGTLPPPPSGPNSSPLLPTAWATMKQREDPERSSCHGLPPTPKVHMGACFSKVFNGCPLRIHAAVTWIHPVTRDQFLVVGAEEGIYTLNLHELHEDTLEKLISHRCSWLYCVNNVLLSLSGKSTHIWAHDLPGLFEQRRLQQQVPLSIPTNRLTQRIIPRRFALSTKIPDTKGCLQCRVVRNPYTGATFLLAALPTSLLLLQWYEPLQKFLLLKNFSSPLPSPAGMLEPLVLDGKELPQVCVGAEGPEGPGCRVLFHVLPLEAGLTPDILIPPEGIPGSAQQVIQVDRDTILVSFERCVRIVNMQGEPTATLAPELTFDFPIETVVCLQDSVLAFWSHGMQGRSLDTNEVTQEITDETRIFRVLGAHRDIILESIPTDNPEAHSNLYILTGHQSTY
Sequence of UniProt Q56UN5 (whole entry, looked up): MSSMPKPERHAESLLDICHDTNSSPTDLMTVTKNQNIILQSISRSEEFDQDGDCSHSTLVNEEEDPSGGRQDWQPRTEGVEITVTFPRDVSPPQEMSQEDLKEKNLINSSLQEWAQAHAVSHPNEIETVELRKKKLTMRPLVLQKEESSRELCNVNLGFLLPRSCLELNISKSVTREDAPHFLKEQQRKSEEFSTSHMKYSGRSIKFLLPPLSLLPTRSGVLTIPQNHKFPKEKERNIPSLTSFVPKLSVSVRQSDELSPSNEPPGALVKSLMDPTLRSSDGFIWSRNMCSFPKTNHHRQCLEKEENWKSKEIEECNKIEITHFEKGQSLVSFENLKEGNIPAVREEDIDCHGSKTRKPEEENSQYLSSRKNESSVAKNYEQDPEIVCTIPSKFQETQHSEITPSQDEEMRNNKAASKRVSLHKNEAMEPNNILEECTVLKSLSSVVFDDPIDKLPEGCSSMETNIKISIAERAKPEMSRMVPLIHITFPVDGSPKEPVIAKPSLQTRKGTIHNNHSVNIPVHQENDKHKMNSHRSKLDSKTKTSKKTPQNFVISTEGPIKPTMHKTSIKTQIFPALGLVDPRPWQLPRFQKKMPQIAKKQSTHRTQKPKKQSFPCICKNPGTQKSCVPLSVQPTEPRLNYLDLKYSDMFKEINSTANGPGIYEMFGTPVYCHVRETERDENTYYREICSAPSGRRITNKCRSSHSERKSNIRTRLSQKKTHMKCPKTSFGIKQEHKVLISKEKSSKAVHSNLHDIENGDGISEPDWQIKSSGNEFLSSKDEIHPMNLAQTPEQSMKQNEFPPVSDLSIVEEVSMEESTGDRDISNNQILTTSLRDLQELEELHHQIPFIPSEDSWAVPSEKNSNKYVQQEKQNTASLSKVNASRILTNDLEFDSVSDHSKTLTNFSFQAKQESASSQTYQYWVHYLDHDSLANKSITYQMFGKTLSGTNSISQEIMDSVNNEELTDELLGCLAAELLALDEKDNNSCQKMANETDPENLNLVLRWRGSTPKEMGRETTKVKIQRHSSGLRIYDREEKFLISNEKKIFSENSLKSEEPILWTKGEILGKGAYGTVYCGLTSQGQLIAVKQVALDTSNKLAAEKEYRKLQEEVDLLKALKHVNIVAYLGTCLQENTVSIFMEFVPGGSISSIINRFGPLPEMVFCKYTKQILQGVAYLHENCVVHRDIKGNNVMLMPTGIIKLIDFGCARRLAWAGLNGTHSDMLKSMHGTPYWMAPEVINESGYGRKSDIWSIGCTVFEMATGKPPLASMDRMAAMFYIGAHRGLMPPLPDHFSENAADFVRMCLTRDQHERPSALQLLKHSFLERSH
Sequence of UniProt P45985 (whole entry, looked up): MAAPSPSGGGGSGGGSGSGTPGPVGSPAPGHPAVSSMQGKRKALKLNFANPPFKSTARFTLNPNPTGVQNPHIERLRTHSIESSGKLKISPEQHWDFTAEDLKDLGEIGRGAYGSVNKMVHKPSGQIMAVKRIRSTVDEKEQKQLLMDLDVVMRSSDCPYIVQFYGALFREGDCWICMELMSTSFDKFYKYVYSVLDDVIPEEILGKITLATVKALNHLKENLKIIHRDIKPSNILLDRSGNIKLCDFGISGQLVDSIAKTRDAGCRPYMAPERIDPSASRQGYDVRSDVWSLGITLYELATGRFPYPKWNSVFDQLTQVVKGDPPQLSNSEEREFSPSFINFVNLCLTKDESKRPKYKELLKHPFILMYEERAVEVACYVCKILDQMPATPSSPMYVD

Set 1
Target: Beta-1 adrenergic receptor (ADRB1, Homo sapiens, UniProt P08588)
Sequence of UniProt P08588 (whole entry, looked up): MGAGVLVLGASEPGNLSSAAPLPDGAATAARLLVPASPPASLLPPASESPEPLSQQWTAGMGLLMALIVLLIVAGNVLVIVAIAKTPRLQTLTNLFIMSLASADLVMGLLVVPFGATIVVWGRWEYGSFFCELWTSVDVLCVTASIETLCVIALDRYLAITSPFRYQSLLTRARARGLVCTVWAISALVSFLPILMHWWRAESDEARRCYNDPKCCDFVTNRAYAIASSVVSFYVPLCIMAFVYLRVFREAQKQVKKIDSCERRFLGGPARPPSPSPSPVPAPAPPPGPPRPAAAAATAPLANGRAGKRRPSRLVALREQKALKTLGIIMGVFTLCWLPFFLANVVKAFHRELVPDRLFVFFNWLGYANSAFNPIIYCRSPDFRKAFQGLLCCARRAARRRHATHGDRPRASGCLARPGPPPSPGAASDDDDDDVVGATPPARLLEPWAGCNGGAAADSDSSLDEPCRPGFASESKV
Mode: agonist
With `N#Cc1ccc(C(=O)Nc2ccc([C@@H](O)[C@H]3COCC(=O)N3CCCc3ccccc3)cc2)cc1` the EC50 was no less than 100 µM.
For `N#Cc1cc(NC(=O)Nc2nnc(-c3ccncc3)s2)ccc1-c1cn[nH]c1`, the EC50 was 2.51 µM.
`CCN(Cc1cccc([S+](=O)([O-])O)c1)c1ccc(C(=C2C=CC(=[N+](CC)Cc3cccc([S+](=O)([O-])O)c3)C=C2)c2ccc(O)cc2[S+](=O)([O-])O)cc1` has an EC50 of 35.5 µM.
`N#C/C(=C\c1ccc(O)c(O)c1)C(=O)NCCc1ccccc1` gave an EC50 of no less than 100 µM.
With `N#Cc1ccc(C(=O)Nc2ccc([C@@H](O)[C@H]3COCC(=O)N3Cc3ccc(F)cc3)cc2)cc1` the EC50 was no less than 100 µM.
For `Clc1ccccc1C(c1ccccc1)N1CCNCC1` (stereo not drawn), the EC50 was no less than 100 µM.
`COc1cccc(F)c1C(=O)Nc1ccc2ccccc2n1` has an EC50 of no less than 100 µM.

Set 2
Compound: CN(C)CC#Cc1ccc(OCCCc2sc(N3CCc4cccc(C(=O)Nc5nc6ccccc6s5)c4C3)nc2C(=O)O)c(F)c1
Read-out: cell-free assay
Technique: competition with immobilised ligand
Tested at: 1 µM
The remaining binding was 100% (MAP4K2 (Homo sapiens, UniProt Q12851)).
It gave 100% for remaining binding (MAP2K4 (Homo sapiens, UniProt P45985)).
The remaining binding was 86% (EGFR (Homo sapiens, UniProt P00533, del746-750)).
MET (Homo sapiens, UniProt P08581, Y1235D) — remaining binding: 95%.
MAP3K19 (Homo sapiens, UniProt Q56UN5) — remaining binding: 95%.
The remaining binding was 85% (Non-receptor tyrosine-protein kinase TYK2, JH1 (TYK2, Homo sapiens, UniProt P29597)).
The remaining binding was 100% (Ribosomal protein S6 kinase alpha-4, N-terminal kinase domain (RPS6KA4, Homo sapiens, UniProt O75676)).
For TTK (Homo sapiens, UniProt P33981): remaining binding read 92%.

Set 3
Target: Dual specificity mitogen-activated protein kinase kinase 2 (MAP2K2, Homo sapiens, UniProt P36507)
Sequence of UniProt P36507 (whole entry, looked up): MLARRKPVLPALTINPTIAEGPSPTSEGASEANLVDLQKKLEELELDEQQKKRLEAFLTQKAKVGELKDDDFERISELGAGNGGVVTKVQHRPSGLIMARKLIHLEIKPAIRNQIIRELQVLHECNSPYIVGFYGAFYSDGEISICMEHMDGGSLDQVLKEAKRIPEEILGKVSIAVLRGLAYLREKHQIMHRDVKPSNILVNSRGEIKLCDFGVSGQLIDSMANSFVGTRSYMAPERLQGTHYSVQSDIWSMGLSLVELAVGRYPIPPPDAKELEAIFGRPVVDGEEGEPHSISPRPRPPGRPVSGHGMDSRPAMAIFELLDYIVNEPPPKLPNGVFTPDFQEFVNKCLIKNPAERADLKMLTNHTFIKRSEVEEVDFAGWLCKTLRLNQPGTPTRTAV
Read-out: enzyme activity
Mode: inhibitor
Tested at: 0.5 µM
Relative to: control
`CC(C)[C@H](CO)Nc1nc(Nc2cc(N)cc(Cl)c2)c2ncn(C(C)C)c2n1` gave a remaining activity of 87.5%.
The remaining activity of `Cc1cccc(-c2[nH]c(C(C)(C)C)nc2-c2ccc3c(c2)OCO3)n1` is reported as 108%.
`CO[C@H]1C[C@@H]2CC[C@@H](C)[C@@](O)(O2)C(=O)C(=O)N2CCCC[C@H]2C(=O)O[C@H]([C@H](C)C[C@@H]2CC[C@@H](O)[C@H](OC)C2)CC(=O)[C@H](C)/C=C(\C)[C@@H](O)[C@@H](OC)C(=O)[C@H](C)C[C@H](C)/C=C/C=C/C=C/1C` gave a remaining activity of 103%.
`OCC(O)CCON=C1C(c2c(O)[nH]c3ccccc23)=Nc2ccccc21` (stereo not drawn) gave a remaining activity of 86.5%.
With `Nc1ccc2ncnc(NCCc3ccc(Oc4ccccc4)cc3)c2c1` the remaining activity was 94.9%.
With `O=c1c2ccccc2[nH]c(=S)n1CCN1CCC(=C(c2ccc(F)cc2)c2ccc(F)cc2)CC1` the remaining activity was 101%.
`O=C(CCCc1ccc(-c2ccccc2F)cc1)Nc1ccc(O)cc1` has a remaining activity of 95.1%.
With `O=C(Nc1cccc(Nc2cc(Nc3cccc(C(F)(F)F)c3)ncn2)c1)C1CC1` the remaining activity was 101%.
`CNC(=O)c1cc(Oc2ccc(NC(=O)Nc3ccc(Cl)c(C(F)(F)F)c3)cc2)ccn1` gave a remaining activity of 89.7%.
The remaining activity of `N#CC(C#N)=C(N)/C(C#N)=C/c1ccc(O)cc1` is reported as 103%.
`NCCNc1ncc(C(N)=O)c(Nc2cccc(C(F)(F)F)c2)n1` has a remaining activity of 103%.
`COc1ccc(CNC(=O)Nc2ncc([N+](=O)[O-])s2)cc1` gave a remaining activity of 73.5%.
For `CN(C)c1ccc(C=C2C(=O)Nc3ccccc32)cc1`, the remaining activity was 99.4%.
With `O=C(O)c1ccc2c3c1cccc3c(=O)n1c3ccccc3nc21` the remaining activity was 105%.
`COc1ccc(C(=O)Nc2sc3c(c2C(N)=O)CCCC3)cc1OC` has a remaining activity of 95.3%.

Set 4
SMILES: CC(C)(C(=O)O)[C@H](NC(=O)Cc1cccc(I)c1)c1ccc2oc(=O)[nH]c2c1
Technique: Incucyte 3D growth
Tested at: 30 µM
Reading: higher = more growth
The spheroid area was 1.81e+08 a.u. and 1.66e+08 a.u. and 1.6e+08 a.u. and 1.8e+08 a.u. and 1.72e+08 a.u. and 1.49e+08 a.u. (A375; 438.52 h).
The spheroid area was 5.97e+07 a.u. and 4.63e+07 a.u. and 4.15e+07 a.u. and 4.06e+07 a.u. and 3.32e+07 a.u. and 4.81e+07 a.u. (MEL-JUSO; 372.52 h).
The spheroid area was 6.05e+06 a.u. and 7.63e+06 a.u. and 8.23e+06 a.u. and 8.59e+06 a.u. and 7.29e+06 a.u. and 8.01e+06 a.u. (NCI-H358; 216 h).
